{"data": "Assay results gathered from unrelated publications", "note": "Each numbered part is a random draw from the data of one study; scales do not carry over between parts.", "chain of UniProt P10721 (whole entry, unmodified, looked up)": "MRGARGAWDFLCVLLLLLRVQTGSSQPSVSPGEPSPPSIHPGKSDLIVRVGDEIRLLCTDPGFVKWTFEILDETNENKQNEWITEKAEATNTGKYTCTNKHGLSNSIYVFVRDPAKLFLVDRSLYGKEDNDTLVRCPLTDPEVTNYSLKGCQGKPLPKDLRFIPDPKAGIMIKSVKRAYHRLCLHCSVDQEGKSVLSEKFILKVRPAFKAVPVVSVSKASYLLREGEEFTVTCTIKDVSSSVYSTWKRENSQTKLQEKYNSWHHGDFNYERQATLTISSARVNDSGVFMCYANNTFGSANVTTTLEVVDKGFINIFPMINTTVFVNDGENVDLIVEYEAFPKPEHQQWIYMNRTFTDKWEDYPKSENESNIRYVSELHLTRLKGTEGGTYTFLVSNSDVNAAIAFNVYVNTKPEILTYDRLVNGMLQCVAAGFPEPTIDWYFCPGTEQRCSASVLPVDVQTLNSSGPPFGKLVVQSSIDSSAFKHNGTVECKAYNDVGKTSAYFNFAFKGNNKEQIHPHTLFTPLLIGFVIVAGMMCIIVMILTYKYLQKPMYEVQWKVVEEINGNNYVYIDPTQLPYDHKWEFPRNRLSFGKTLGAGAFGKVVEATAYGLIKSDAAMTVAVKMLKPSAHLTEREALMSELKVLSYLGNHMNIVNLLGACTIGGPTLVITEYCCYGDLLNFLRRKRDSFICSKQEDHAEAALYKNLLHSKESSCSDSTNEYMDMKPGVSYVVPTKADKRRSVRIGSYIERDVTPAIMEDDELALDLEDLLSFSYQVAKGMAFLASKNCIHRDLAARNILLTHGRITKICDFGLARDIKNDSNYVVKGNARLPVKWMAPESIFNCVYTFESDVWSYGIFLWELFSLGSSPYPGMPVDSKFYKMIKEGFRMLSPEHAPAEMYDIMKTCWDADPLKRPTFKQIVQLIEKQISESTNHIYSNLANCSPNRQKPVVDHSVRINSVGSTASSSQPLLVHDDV", "chain of UniProt Q99558 (whole entry, looked up)": "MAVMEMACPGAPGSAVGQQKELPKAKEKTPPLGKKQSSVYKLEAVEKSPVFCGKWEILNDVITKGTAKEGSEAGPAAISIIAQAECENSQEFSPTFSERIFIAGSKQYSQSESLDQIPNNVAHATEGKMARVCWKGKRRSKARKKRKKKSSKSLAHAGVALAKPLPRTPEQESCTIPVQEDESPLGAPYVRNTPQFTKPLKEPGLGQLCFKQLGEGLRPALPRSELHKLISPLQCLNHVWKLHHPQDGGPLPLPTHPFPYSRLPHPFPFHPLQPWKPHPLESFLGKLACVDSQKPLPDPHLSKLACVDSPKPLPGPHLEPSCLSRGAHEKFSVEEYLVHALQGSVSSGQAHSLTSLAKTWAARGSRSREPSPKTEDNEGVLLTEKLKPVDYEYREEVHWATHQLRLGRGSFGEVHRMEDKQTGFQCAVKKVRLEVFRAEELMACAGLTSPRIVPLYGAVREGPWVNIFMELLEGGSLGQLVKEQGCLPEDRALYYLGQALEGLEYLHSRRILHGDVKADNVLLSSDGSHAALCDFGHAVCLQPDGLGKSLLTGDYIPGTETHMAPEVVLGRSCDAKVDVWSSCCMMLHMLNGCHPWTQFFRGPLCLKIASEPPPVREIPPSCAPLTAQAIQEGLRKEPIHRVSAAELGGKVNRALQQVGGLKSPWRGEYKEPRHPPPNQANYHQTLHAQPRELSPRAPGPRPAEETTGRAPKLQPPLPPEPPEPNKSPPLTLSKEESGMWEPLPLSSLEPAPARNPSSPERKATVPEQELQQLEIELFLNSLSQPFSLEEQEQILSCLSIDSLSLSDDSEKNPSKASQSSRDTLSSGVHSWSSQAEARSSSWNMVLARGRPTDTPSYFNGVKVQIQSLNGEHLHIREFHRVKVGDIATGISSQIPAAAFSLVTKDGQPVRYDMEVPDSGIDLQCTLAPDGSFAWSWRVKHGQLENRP", "chain of UniProt Q9UBE8 (whole entry, looked up)": "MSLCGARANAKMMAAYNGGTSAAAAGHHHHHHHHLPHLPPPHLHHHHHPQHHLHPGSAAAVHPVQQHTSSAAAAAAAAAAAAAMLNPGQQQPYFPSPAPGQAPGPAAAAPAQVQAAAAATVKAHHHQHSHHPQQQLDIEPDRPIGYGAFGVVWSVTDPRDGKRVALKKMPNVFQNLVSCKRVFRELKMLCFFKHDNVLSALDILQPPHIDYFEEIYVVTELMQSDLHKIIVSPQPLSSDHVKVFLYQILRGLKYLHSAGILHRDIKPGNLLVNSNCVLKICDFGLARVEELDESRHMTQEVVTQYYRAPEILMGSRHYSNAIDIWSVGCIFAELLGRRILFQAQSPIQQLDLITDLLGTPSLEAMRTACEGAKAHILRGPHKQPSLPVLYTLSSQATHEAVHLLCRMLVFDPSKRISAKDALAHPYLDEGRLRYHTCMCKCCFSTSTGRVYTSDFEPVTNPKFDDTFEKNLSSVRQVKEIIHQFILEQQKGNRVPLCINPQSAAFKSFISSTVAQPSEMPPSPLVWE", "chain of UniProt Q9NYY3 (whole entry, looked up)": "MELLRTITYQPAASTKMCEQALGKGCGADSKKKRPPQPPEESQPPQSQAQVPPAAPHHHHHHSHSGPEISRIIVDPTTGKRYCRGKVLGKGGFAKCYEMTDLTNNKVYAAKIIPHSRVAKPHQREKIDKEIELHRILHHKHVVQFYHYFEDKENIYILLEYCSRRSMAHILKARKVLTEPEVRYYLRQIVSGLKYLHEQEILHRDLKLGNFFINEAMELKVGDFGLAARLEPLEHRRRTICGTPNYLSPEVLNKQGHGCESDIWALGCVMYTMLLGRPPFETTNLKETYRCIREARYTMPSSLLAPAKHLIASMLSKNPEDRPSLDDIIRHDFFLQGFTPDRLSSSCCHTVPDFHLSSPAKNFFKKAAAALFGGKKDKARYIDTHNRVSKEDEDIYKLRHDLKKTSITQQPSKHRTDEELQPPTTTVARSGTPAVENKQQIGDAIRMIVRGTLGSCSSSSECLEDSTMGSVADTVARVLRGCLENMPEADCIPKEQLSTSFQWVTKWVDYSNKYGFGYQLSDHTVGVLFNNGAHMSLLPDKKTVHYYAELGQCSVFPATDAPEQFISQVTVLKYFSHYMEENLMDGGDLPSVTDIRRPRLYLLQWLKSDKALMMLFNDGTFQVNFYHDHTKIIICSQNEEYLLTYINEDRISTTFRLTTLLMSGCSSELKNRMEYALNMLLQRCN", "chain of UniProt Q9C098 (whole entry, looked up)": "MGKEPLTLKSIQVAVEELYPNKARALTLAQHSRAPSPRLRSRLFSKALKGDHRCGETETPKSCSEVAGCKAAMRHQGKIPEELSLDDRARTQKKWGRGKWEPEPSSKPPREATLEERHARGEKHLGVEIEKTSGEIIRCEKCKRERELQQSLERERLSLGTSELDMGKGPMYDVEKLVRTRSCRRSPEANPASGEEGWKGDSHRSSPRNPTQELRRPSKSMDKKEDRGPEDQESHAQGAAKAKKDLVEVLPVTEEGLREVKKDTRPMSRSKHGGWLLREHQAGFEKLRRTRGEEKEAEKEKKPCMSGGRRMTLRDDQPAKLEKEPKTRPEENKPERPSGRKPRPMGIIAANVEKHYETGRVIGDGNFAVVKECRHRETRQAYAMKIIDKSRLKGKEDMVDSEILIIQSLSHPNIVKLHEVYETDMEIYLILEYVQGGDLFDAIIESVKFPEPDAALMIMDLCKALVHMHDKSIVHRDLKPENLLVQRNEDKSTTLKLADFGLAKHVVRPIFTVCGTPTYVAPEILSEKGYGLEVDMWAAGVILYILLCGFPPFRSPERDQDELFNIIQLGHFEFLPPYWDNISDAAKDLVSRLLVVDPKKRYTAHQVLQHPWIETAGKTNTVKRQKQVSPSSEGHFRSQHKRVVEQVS"}
{"data": "Block 1", "SMILES": "CCC(=N\\O)/C(C)=C/c1ccc(F)cc1", "effect on": "cell-free assay", "method": "competition with immobilised ligand", "concentration": "1 µM"}
{"target": "Cyclin-dependent kinase-like 1 (CDKL1, Homo sapiens, UniProt Q00532)", "remaining binding [%]": 81}
{"target": "Serine/threonine-protein kinase NLK (NLK, Homo sapiens, UniProt Q9UBE8)", "remaining binding [%]": 100}
{"target": "SNF-related serine/threonine-protein kinase (SNRK, Homo sapiens, UniProt Q9NRH2)", "remaining binding [%]": 100}
{"target": "Mast/stem cell growth factor receptor Kit (KIT, Homo sapiens, UniProt P10721, A829P)", "remaining binding [%]": 64}
{"target": "Mitogen-activated protein kinase kinase kinase 14 (MAP3K14, Homo sapiens, UniProt Q99558)", "remaining binding [%]": 84}
{"target": "Homeodomain-interacting protein kinase 2 (HIPK2, Homo sapiens, UniProt Q9H2X6)", "remaining binding [%]": 100}
{"target": "Serine/threonine-protein kinase DCLK3 (DCLK3, Homo sapiens, UniProt Q9C098)", "remaining binding [%]": 77}
{"target": "Serine/threonine-protein kinase PAK 2 (PAK2, Homo sapiens, UniProt Q13177)", "remaining binding [%]": 82}
{"target": "Cyclin-dependent kinase-like 5 (CDKL5, Homo sapiens, UniProt O76039)", "remaining binding [%]": 82}
{"target": "AP2-associated protein kinase 1 (AAK1, Homo sapiens, UniProt Q2M2I8)", "remaining binding [%]": 89}
{"target": "Epidermal growth factor receptor (EGFR, Homo sapiens, UniProt P00533, del752-759)", "remaining binding [%]": 59}
{"target": "Mast/stem cell growth factor receptor Kit (KIT, Homo sapiens, UniProt P10721, T670I/V559D)", "remaining binding [%]": 95}
{"target": "Receptor tyrosine-protein kinase erbB-3 (ERBB3, Homo sapiens, UniProt P21860)", "remaining binding [%]": 100}
{"target": "Epithelial discoidin domain-containing receptor 1 (DDR1, Homo sapiens, UniProt Q08345)", "remaining binding [%]": 89}
{"target": "Serine/threonine-protein kinase PLK2 (PLK2, Homo sapiens, UniProt Q9NYY3)", "remaining binding [%]": 78}
{"target": "Epidermal growth factor receptor (EGFR, Homo sapiens, UniProt P00533, G719S)", "remaining binding [%]": 67}
{"data": "Block 2", "Compound": "CC(C)n1cnc(-c2ccc(F)cc2)c1-c1ncc(C(=O)Nc2ccc(N3CCN(C)CC3)cc2)[nH]1", "method": "phase 2a trial", "host": "idiopathic pulmonary fibrosis patients"}
{"setting": "all arms, grade 5 emergent event", "patients with rhinorrhoea": "0%"}
{"setting": "all arms, grade 2 emergent event", "patients with rhinorrhoea": "0%"}
{"setting": "30 mg once daily, grade 5 emergent event", "patients with rhinorrhoea": "0%"}
{"setting": "30 mg once daily, grade 3 emergent event", "patients with rhinorrhoea": "0%"}
{"setting": "60 mg once daily, grade 2 emergent event", "patients with rhinorrhoea": "0%"}
{"setting": "60 mg once daily, grade 3 emergent event", "patients with rhinorrhoea": "0%"}
{"setting": "30 mg once daily, grade 1 emergent event", "patients with rhinorrhoea": "0%"}
{"setting": "60 mg once daily, grade 4 emergent event", "patients with rhinorrhoea": "0%"}
{"setting": "30 mg once daily, grade 4 emergent event", "patients with rhinorrhoea": "0%"}
{"data": "Block 3", "target": "Myosin light chain kinase 2, skeletal/cardiac muscle (MYLK2, Homo sapiens, UniProt Q9H1R3)", "effect on": "enzyme activity", "action": "inhibitor", "concentration": "0.5 µM", "relative to": "control", "chain of UniProt Q9H1R3 (whole entry, looked up)": "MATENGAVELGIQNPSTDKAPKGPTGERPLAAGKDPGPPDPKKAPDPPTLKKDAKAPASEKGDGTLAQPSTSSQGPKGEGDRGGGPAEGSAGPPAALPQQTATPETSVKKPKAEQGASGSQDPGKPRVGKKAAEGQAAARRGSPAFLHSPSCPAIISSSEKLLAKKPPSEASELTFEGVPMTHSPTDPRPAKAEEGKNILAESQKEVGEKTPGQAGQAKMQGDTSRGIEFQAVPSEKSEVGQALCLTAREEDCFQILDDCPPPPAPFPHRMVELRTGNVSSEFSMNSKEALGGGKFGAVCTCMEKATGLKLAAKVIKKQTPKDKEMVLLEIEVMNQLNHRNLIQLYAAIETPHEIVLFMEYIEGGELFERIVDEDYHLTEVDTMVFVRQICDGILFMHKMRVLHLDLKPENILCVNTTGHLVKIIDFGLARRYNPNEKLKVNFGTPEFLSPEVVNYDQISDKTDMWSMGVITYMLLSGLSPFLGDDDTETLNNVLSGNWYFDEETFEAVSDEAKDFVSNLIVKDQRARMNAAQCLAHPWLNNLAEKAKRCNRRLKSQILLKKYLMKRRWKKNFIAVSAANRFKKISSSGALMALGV"}
{"Compound": "O=C1Cc2c([nH]c3ccc([N+](=O)[O-])cc23)-c2ccccc2N1", "remaining activity [%]": 94.8}
{"Compound": "CSc1nc(-c2ccnc(N[C@@H](C)c3ccccc3)c2)c(-c2ccc(F)cc2)[nH]1 (racemic)", "remaining activity [%]": 102}
{"Compound": "Cc1cc(Nc2nc(-c3ccccc3)nc3ccccc23)n[nH]1", "remaining activity [%]": 62.8}
{"Compound": "O=C1NC(=O)C(c2c[nH]c3ccccc23)=C1c1c[nH]c2ccccc12", "remaining activity [%]": 91.9}
{"Compound": "Nc1nccc(-c2c(-c3ccc(F)cc3)ncn2C2CCNCC2)n1", "remaining activity [%]": 103}
{"Compound": "COc1ccc(S(=O)(=O)N(CCO)c2ccccc2CN(C)CC=Cc2ccc(Cl)cc2)cc1", "remaining activity [%]": 97.8}
{"Compound": "Cc1ccc(NC2=CC(=O)c3sc(C)nc3C2=O)cc1", "remaining activity [%]": 92.8}
{"Compound": "N#CC(=C(N)Sc1ccc(N)cc1)c1ccccc1C(F)(F)F", "remaining activity [%]": 100}
{"Compound": "Fc1ccc(-c2nc3n(c2-c2ccncc2)CCS3)cc1", "remaining activity [%]": 101}
{"Compound": "CCCC(=O)Oc1ccc2[nH]c(C(=O)c3cc4ccccc4[nH]3)cc2c1", "remaining activity [%]": 98.2}
{"Compound": "Nc1nc(Nc2ccc(S(N)(=O)=O)cc2)nn1C(=O)c1c(F)cccc1F", "remaining activity [%]": 96.1}
{"Compound": "NC(=O)c1ccc(N(C(N)=O)c2c(F)cccc2F)nc1-c1ccc(F)cc1F", "remaining activity [%]": 101}
{"Compound": "Cc1cncc2cccc(S(=O)(=O)N3CCCN(C(=O)CN)C[C@@H]3C)c12", "remaining activity [%]": 101}
{"Compound": "Oc1ccc(Nc2nc(-c3ccc(Cl)cc3)cs2)cc1", "remaining activity [%]": 97.1}
{"Compound": "CC[n+]1c(/C=C/N(C)c2ccccc2)n(-c2ccccc2)c2ccc(-c3nc4ccccc4s3)cc21", "remaining activity [%]": 95.8}
{"Compound": "Nc1ncnc2c1cnn2-c1ccccc1", "remaining activity [%]": 99.9}
{"Compound": "CCc1[nH]c(-c2ccc(OC)cc2)nc1-c1ccncc1", "remaining activity [%]": 101}
{"Compound": "CC#CC(=O)Nc1cc2c(Nc3ccc(F)c(Cl)c3)ncnc2cn1", "remaining activity [%]": 99.9}
{"Compound": "CC(=O)c1ccc(N2CCOCC2)cc1O", "remaining activity [%]": 98.6}
{"Compound": "COc1cc(Nc2c(C#N)cnc3cc(OCCCN4CCN(C)CC4)c(OC)cc23)c(Cl)cc1Cl", "remaining activity [%]": 32.1}
{"data": "Block 4", "target": "Beta-1 adrenergic receptor (ADRB1, Homo sapiens, UniProt P08588)", "action": "antagonist", "chain of UniProt P08588 (whole entry, looked up)": "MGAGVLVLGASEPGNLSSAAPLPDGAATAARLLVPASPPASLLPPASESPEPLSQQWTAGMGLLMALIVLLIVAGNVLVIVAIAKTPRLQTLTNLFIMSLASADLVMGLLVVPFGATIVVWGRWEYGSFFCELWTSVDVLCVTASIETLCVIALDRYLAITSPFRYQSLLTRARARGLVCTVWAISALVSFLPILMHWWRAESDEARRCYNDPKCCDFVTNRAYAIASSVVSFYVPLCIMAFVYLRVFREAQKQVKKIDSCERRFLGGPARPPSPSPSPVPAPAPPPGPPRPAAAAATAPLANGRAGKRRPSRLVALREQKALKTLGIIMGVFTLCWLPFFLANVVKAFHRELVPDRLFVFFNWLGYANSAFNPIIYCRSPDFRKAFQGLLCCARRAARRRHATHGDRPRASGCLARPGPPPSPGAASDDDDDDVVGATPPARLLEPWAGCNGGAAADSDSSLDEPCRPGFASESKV"}
{"SMILES": "CN(C)c1ccc(-c2nnnn2[C@H]2CO[C@H]3[C@@H]2OC[C@@H]3N[S+](=O)([O-])c2cccc3cccnc23)cc1", "IC50 [µM]": "≥ 100"}
{"SMILES": "Cc1cccc(NC(=O)COc2ccc3c(C)cc(=O)oc3c2)c1", "IC50 [µM]": "≥ 100"}
{"SMILES": "O=[S+]([O-])(NCc1cccc2ccccc12)c1cc(Cl)c(Oc2cccc(N3CCNCC3)c2)s1", "IC50 [µM]": "≥ 100"}
{"SMILES": "CC(CCc1ccc(O)cc1)NCC(O)c1ccc(O)cc1 (stereo not shown)", "IC50 [µM]": "≥ 100"}
{"SMILES": "CC(C)NCC(O)c1cc(O)cc(O)c1 (stereo not shown)", "IC50 [µM]": "≥ 100"}
{"SMILES": "CN(C)c1cccc(-c2ncc3c(n2)OCCN(c2ccccc2)C3=O)c1", "IC50 [µM]": "≥ 100"}
{"SMILES": "Cn1c(=O)n(-c2ccc(N3CCN(C(=O)OC(C)(C)C)CC3)c(C(F)(F)F)c2)c2c3cc(-c4cncc5ccccc45)ccc3ncc21", "IC50 [µM]": "≥ 100"}
{"SMILES": "N#C/C(=C\\c1ccc(O)c(O)c1)C(=O)NCCCCc1ccccc1", "IC50 [µM]": "≥ 100"}
{"SMILES": "C[n+]1ccc(-c2c3nc(c(-c4cc[n+](C)cc4)c4ccc([nH]4)c(-c4cc[n+](C)cc4)c4nc(c(-c5cc[n+](C)cc5)c5ccc2[nH]5)C=C4)C=C3)cc1", "IC50 [µM]": "≥ 100"}
{"SMILES": "COc1ccccc1N1CCN(CC(=O)NC2CCN(C3CC3)CC2)CC1", "IC50 [µM]": "≥ 100"}
{"SMILES": "Cc1cn([C@@H]2O[C@H](CO)[C@@H](O)[C@H]2O)c(=O)[nH]c1=O", "IC50 [µM]": "≥ 100"}
{"SMILES": "O=C(Nc1ccccc1)c1cc2c(nc1O)CC(c1ccco1)CC2=O (stereo not shown)", "IC50 [µM]": "≥ 100"}
{"SMILES": "C[C@@H](O)[C@H](NC(=O)[C@@H]1CSSC[C@H](NC(=O)[C@H](N)Cc2ccccc2)C(=O)N[C@@H](Cc2ccc(O)cc2)C(=O)N[C@H](Cc2c[nH]c3ccccc23)C(=O)N[C@@H](CCCCN)C(=O)N1)C(N)=O", "IC50 [µM]": "≥ 100"}
{"SMILES": "CCOc1ccc(C(=O)N2CCc3cc(OC)c(OC)cc3C2COc2ccc3c(C)cc(=O)oc3c2)cc1OCC (stereo not shown)", "IC50 [µM]": "≥ 100"}
{"SMILES": "N[C@H](C(=O)O)[C@H](O)c1ccc(O)c(O)c1", "IC50 [µM]": 11.2}
{"SMILES": "Cc1nn(C)c(C)c1CN(Cc1ccc2c(C)cc(=O)oc2c1)C1CC1", "IC50 [µM]": "≥ 100"}
{"SMILES": "CC(CNc1nc(C(C)C)nc2c1cnn2C)Oc1cccnc1 (stereo not shown)", "IC50 [µM]": "≥ 100"}
{"SMILES": "COc1ccc2[nH]cc(C3=CCN(c4ccc(C#N)cc4F)CC3)c2c1", "IC50 [µM]": "≥ 100"}
{"SMILES": "OC(COc1cccc(CN2CCC(c3ncon3)CC2)c1)CN1CCOCC1 (stereo not shown)", "IC50 [µM]": "≥ 100"}
{"note": "Excerpt of the above (block 1):"}
{"target": "Serine/threonine-protein kinase DCLK3 (DCLK3, Homo sapiens, UniProt Q9C098)", "remaining binding [%]": 77}
{"target": "Serine/threonine-protein kinase PAK 2 (PAK2, Homo sapiens, UniProt Q13177)", "remaining binding [%]": 82}
{"target": "Cyclin-dependent kinase-like 5 (CDKL5, Homo sapiens, UniProt O76039)", "remaining binding [%]": 82}
{"target": "AP2-associated protein kinase 1 (AAK1, Homo sapiens, UniProt Q2M2I8)", "remaining binding [%]": 89}
{"target": "Epidermal growth factor receptor (EGFR, Homo sapiens, UniProt P00533, del752-759)", "remaining binding [%]": 59}
{"target": "Mast/stem cell growth factor receptor Kit (KIT, Homo sapiens, UniProt P10721, T670I/V559D)", "remaining binding [%]": 95}
